{"data": "Measurements collected from several papers", "note": "Numbered parts are unrelated; each lists some results of a single study."}
{"data": "Set 1", "target": "Sal-like protein 4, full length isoform A (SALL4, Homo sapiens, UniProt Q9UJQ4, residues 1-1053)", "technique": "universal PBM", "molecule type": "double-stranded DNA, one strand shown", "matrix": "in vitro", "tested at": "600 nM", "notes": "8-mer, flanks averaged, mean of replicates", "direction": "higher = stronger binding", "sequence of UniProt Q9UJQ4 (whole entry, looked up)": "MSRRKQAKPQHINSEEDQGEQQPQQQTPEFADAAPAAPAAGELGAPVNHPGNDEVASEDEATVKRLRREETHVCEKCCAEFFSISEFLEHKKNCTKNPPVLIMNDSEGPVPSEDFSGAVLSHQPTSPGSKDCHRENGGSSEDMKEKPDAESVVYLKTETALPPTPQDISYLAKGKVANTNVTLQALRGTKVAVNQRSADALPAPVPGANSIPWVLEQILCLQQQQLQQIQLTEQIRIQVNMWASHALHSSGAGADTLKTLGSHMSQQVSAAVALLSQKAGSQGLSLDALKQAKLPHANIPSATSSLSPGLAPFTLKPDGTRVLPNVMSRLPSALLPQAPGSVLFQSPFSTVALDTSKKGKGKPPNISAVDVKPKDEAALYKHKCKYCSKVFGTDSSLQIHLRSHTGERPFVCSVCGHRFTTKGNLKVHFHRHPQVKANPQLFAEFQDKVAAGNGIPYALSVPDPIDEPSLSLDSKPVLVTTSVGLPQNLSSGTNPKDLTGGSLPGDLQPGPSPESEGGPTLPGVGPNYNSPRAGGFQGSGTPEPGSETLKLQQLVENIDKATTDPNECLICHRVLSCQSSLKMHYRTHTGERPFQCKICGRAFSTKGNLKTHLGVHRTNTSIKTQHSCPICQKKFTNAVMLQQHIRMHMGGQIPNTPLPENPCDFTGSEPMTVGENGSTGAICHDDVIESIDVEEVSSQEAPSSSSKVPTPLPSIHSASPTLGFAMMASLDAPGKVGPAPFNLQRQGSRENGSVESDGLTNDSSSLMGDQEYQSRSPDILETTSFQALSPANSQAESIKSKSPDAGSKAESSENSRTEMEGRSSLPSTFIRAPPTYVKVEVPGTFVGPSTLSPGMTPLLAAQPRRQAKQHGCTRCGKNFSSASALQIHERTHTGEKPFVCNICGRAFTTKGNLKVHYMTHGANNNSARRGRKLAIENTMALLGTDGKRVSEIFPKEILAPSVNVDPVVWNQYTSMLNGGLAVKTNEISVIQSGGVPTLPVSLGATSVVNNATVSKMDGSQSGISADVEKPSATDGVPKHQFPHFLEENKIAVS"}
{"Strand": "ATTCTGCG", "E-score": -0.0362}
{"Strand": "AACCTTGG", "E-score": -0.0517}
{"Strand": "GTGATAAC", "E-score": 0.236}
{"data": "Set 2", "target": "Interferon regulatory factor 3, full length, phosphomimetic (IRF3, Homo sapiens, UniProt Q14653, residues 1-427, S386D/S396D/S398D/S402D/T404D/S405D)", "technique": "protein-binding microarray", "molecule type": "double-stranded DNA, one strand shown", "matrix": "in vitro", "tested at": "2540 nM top", "notes": "60-bp whole probe", "together with": "salmon DNA 0.4 mg/ml", "relative to": "random background probes", "direction": "higher = stronger binding", "Construct (chain)": "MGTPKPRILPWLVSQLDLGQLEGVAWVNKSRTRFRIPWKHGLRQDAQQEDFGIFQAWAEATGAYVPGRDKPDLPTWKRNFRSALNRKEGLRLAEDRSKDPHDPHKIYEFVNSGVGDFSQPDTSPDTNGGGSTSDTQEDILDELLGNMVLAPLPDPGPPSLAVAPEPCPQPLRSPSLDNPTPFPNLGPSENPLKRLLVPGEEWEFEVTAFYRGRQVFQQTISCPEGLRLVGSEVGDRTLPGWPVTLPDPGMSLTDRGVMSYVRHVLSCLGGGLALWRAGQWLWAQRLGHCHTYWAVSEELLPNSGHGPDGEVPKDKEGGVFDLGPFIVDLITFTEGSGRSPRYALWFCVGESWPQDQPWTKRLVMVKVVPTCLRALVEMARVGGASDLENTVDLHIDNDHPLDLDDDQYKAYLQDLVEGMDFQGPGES"}
{"Strand": "GCCTAGCACGACGGTTTGCTACTGCTGACGTGCTAGGTCTTGATTCGCTTGACGCTGCTG", "fitted relative affinity": "0.114 z-score"}
{"Strand": "GCCTAGCACCTTAGACTGTCCTGCTGGAGGTGCTAGGTCTTGATTCGCTTGACGCTGCTG", "fitted relative affinity": "-0.122 z-score"}
{"Strand": "GCCTAGCACGACGGTTTCGGTTTAGGGACGTGCTAGGTCTTGATTCGCTTGACGCTGCTG", "fitted relative affinity": "9.27 z-score"}
{"Strand": "GCCTAGCACTTTGGTTTCCTACTGCTTTAGTGCTAGGTCTTGATTCGCTTGACGCTGCTG", "fitted relative affinity": "6.01 z-score"}
{"data": "Set 3", "target": "Centromere-binding protein 1, full length, N-terminal tag (CBF1, Saccharomyces cerevisiae, UniProt P17106, residues 1-351)", "technique": "protein-binding microarray", "molecule type": "double-stranded DNA, one strand shown", "matrix": "in vitro", "tested at": "0.8 µM", "notes": "whole 60-bp probe, no competitor", "direction": "higher = stronger binding", "sequence of UniProt P17106 (whole entry, looked up)": "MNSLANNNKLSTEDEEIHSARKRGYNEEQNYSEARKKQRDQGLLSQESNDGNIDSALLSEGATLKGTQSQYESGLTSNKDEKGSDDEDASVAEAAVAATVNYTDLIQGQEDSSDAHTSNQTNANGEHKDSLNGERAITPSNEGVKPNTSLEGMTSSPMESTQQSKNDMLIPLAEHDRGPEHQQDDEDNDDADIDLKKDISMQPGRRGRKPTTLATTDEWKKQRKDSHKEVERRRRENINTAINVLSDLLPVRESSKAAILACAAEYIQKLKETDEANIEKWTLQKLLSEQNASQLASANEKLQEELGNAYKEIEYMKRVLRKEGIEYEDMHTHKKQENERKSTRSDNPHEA"}
{"Strand": "GAAATCAGCGCGTATGTGGTGTGGTGTGTGTTTTAGGTCTTGATTCGCTTGACGCTGCTG", "fluorescence intensity [a.u.]": 555}
{"Strand": "GAATTTTGCACGGTTTATCACATGGACAAAGGCTAGGTCTTGATTCGCTTGACGCTGCTG", "fluorescence intensity [a.u.]": 1440}
{"Strand": "GAATAGTTTCTTTCGCATGTGGTCGCTGTATGATAGGTCTTGATTCGCTTGACGCTGCTG", "fluorescence intensity [a.u.]": 702}
{"Strand": "CTACTTATCAAGTGGCGTGCCACGGCATCTACCTTCGTCTTGATTCGCTTGACGCTGCTG", "fluorescence intensity [a.u.]": 752}
{"data": "Other studies, line by line"}
{"Molecule": "PhoQ, residues 284 288 289 292 302 303 TTSMTC", "target": "PhoP, residues 12 14 15 18 19 LYHSL (Escherichia coli, UniProt P23836)", "test": "Sort-seq, refers to: YFP reporter", "test system": "E. coli", "setting": "PhoQ-PhoP variant library, together with: 10 µM Mg2+", "scale": "relative to: high Mg2+ state, higher = stronger signaling", "endpoint": "fold induction", "value": 1.46}
{"note": "For quick reference, copied from above (set 2):"}
{"Strand": "GCCTAGCACCTTAGACTGTCCTGCTGGAGGTGCTAGGTCTTGATTCGCTTGACGCTGCTG", "fitted relative affinity": "-0.122 z-score"}
{"Strand": "GCCTAGCACTTTGGTTTCCTACTGCTTTAGTGCTAGGTCTTGATTCGCTTGACGCTGCTG", "fitted relative affinity": "6.01 z-score"}
